Published values collected from several papers.
Compare with care: the assays were run in different laboratories. ± gives the spread as reported.

SMILES | test system | conditions | tissue uptake [%ID/g]
N=C(N)NCCC[C@@H]1NC(=O)[C@H](CCCCNC(=O)CCOCCOCCOCCOCCNC(=O)CC[C@H](NC(=O)CCOCCOCCOCCOCCNC(=O)CC[C@H](NC(=O)CN2CCN(CC(=O)O)CCN(CC(=O)O)CCN(CC(=O)O)CC2)C(=O)NCCOCCOCCOCCOCCC(=O)N[C@@H](CCC(=O)NCCOCCOCCOCCOCCC(=O)NCCCC[C@@H]2NC(=O)[C@@H](Cc3ccccc3)NC(=O)[C@H](CC(=O)O)NC(=O)CNC(=O)[C@H](CCCNC(=N)N)NC2=O)C(=O)NCCOCCOCCOCCOCCC(=O)NCCCC[C@@H]2NC(=O)[C@@H](Cc3ccccc3)NC(=O)[C@H](CC(=O)O)NC(=O)CNC(=O)[C@H](CCCNC(=N)N)NC2=O)C(=O)NCCOCCOCCOCCOCCC(=O)NCCCC[C@@H]2NC(=O)[C@@H](Cc3ccccc3)NC(=O)[C@H](CC(=O)O)NC(=O)CNC(=O)[C@H](CCCNC(=N)N)NC2=O)NC(=O)[C@@H](Cc2ccccc2)NC(=O)[C@H](CC(=O)O)NC(=O)CNC1=O [indium-111 labelled] | female athymic nude mice, bone | intravenous, 3 µCi, 0.5 h, U-87 MG glioma xenograft | 1.27 ± 0.23
CSCC[C@H](NC(=O)[C@H](CC(C)C)NC(=O)[C@H](Cc1c[nH]cn1)NC(=O)CNC(=O)[C@@H](NC(=O)[C@H](C)NC(=O)[C@H](Cc1c[nH]c2ccccc12)NC(=O)[C@H](CCC(N)=O)NC(=O)CNC(=O)[C@H](CO)NC(=O)CNC(=O)CCCCCCCNC(=O)CCC(=O)Nc1ccc(CNC23CNCCNCC(N)(CNCCNC2)CNCCNC3)cc1)C(C)C)C(N)=O [copper-64 labelled] | female SCID mice, PC-3 xenograft, pancreas | intravenous, 0.6 MBq, 24 h | 29.9 ± 1.6
N=C(N)NCCC[C@@H]1NC(=O)[C@H](CCCCNC(=O)CCOCCOCCOCCOCCNC(=O)CC[C@H](NC(=O)CCOCCOCCOCCOCCNC(=O)[C@H](CCCCNC(=O)c2ccc(NN)nc2)NC(=O)c2ccc(NN)nc2)C(=O)NCCOCCOCCOCCOCCC(=O)NCCCC[C@@H]2NC(=O)[C@@H](Cc3ccccc3)NC(=O)[C@H](CC(=O)O)NC(=O)CNC(=O)[C@H](CCCNC(=N)N)NC2=O)NC(=O)[C@@H](Cc2ccccc2)NC(=O)[C@H](CC(=O)O)NC(=O)CNC1=O [technetium-99m labelled] | athymic nude mice, intestine | intravenous, 60 min, blocking, together with: excess RGD2 14 mg/kg co-injected | 4.41 ± 2.07
CSCC[C@H](NC(=O)[C@H](CC(C)C)NC(=O)[C@H](Cc1c[nH]cn1)NC(=O)CNC(=O)[C@@H](NC(=O)[C@H](C)NC(=O)[C@H](Cc1c[nH]c2ccccc12)NC(=O)[C@H](CCC(N)=O)NC(=O)CCCCCCCNC(=O)CCC(=O)Nc1ccc(CNC23CNCCNCC(N)(CNCCNC2)CNCCNC3)cc1)C(C)C)C(N)=O [copper-64 labelled] | female SCID mice, PC-3 xenograft, bone | intravenous, 0.6 MBq, 1 h | 1.74 ± 0.525
N=C(N)NCCC[C@@H]1NC(=O)[C@H](CCCCNC(=O)CCOCCOCCOCCOCCNC(=O)CN2CCN(CC(=O)O)CCN(CC(=O)O)CCN(CC(=O)O)CC2)NC(=O)[C@@H](Cc2ccccc2)NC(=O)[C@H](CC(=O)O)NC(=O)CNC1=O [indium-111 labelled] | female athymic nude mice, liver | intravenous, 3 µCi, 72 h, U-87 MG glioma xenograft | 0.3 ± 0.07
N=C(N)NCCC[C@H](NC(=O)[C@H](CCCCN)NC(=O)[C@H](CCC(N)=O)NC(=O)CCOCCOCCOCCNC(=O)CN1CCN(CC(=O)O)CCN(CC(=O)O)CCN(CC(=O)O)CC1)C(=O)N[C@@H](CCCCN)C(=O)N[C@@H](CCCNC(=N)N)C(=O)N[C@@H](CCCCN)C(=O)N[C@@H](CCCCN)C(=O)N[C@@H](CO)C(=O)N[C@@H](CCCNC(=N)N)C(=O)N[C@@H](Cc1ccc(O)cc1)C(=O)N[C@@H](CCCCN)C(=O)N[C@@H](CO)C(=O)O [copper-64 labelled] | C57BL/6 mice, B16-F10 tumour, liver | intravenous, 60 min | 3.93 ± 0.42
N=C(N)NCCC[C@@H]1NC(=O)[C@H](CCCCNC(=O)CC[C@H](NC(=O)[C@H](CCCCNC(=O)c2ccc(NN)nc2)NC(=O)c2ccc(NN)nc2)C(=O)NCCCC[C@@H]2NC(=O)[C@@H](Cc3ccccc3)NC(=O)[C@H](CC(=O)O)NC(=O)CNC(=O)[C@H](CCCNC(=N)N)NC2=O)NC(=O)[C@@H](Cc2ccccc2)NC(=O)[C@H](CC(=O)O)NC(=O)CNC1=O [technetium-99m labelled] | female athymic nude mice, kidneys | intravenous, 0.1 MBq, 1 h, U-87 MG glioma xenograft | 12.2 ± 0.93
CC(C)C[C@H](NC(=O)[C@H](Cc1ccc(O)cc1)NC(=O)[C@@H](CCCNC(=N)N)NC(=O)[C@@H](CO)NC(=O)[C@H](Cc1ccccc1)NC(=O)[C@H](CC1CCCCC1)NC(=O)[C@H](CC(=O)O)NC(=O)CCC(C(=O)O)N1CCCN2CCN(CCCN(CC(=O)O)CC2)CC1)C(=O)N[C@@H](Cc1c[nH]c2ccccc12)C(=O)N[C@@H](CO)C(=O)O (stereo partly shown) [copper-64 labelled] | female NMRI nude mice, heart | 1 h p.i. | 1.1 ± 0.1
N=C(N)NCCC[C@@H]1NC(=O)[C@H](CCCCNC(=O)CNC(=O)CNC(=O)CNC(=O)CC[C@H](NC(=O)CNC(=O)CNC(=O)CNC(=O)[C@H](CCCCNC(=O)c2ccc(NN)nc2)NC(=O)c2ccc(NN)nc2)C(=O)NCC(=O)NCC(=O)NCC(=O)NCCCC[C@@H]2NC(=O)[C@@H](Cc3ccccc3)NC(=O)[C@H](CC(=O)O)NC(=O)CNC(=O)[C@H](CCCNC(=N)N)NC2=O)NC(=O)[C@@H](Cc2ccccc2)NC(=O)[C@H](CC(=O)O)NC(=O)CNC1=O [technetium-99m labelled] | female athymic nude mice, brain | intravenous, 0.1 MBq, 1 h, U-87 MG glioma xenograft | 0.13 ± 0.03
N=C(N)NCCC[C@@H]1NC(=O)[C@H](CCCCNC(=O)CC[C@H](NC(=O)CCOCCOCCOCCOCCNC(=O)CC[C@H](NC(=O)CN2CCN(CC(=O)O)CCN(CC(=O)O)CCN(CC(=O)O)CC2)C(=O)NCCOCCOCCOCCOCCC(=O)N[C@@H](CCC(=O)NCCCC[C@@H]2NC(=O)[C@@H](Cc3ccccc3)NC(=O)[C@H](CC(=O)O)NC(=O)CNC(=O)[C@H](CCCNC(=N)N)NC2=O)C(=O)NCCCC[C@@H]2NC(=O)[C@@H](Cc3ccccc3)NC(=O)[C@H](CC(=O)O)NC(=O)CNC(=O)[C@H](CCCNC(=N)N)NC2=O)C(=O)NCCCC[C@@H]2NC(=O)[C@@H](Cc3ccccc3)NC(=O)[C@H](CC(=O)O)NC(=O)CNC(=O)[C@H](CCCNC(=N)N)NC2=O)NC(=O)[C@@H](Cc2ccccc2)NC(=O)[C@H](CC(=O)O)NC(=O)CNC1=O [indium-111 labelled] | female athymic nude mice, intestine | intravenous, 3 µCi, 1 h, U-87 MG glioma xenograft | 8.98 ± 3.47

For quick reference, copied from above:
SMILES | test system | conditions | tissue uptake [%ID/g]
N=C(N)NCCC[C@@H]1NC(=O)[C@H](CCCCNC(=O)CCOCCOCCOCCOCCNC(=O)CN2CCN(CC(=O)O)CCN(CC(=O)O)CCN(CC(=O)O)CC2)NC(=O)[C@@H](Cc2ccccc2)NC(=O)[C@H](CC(=O)O)NC(=O)CNC1=O [indium-111 labelled] | female athymic nude mice, liver | intravenous, 3 µCi, 72 h, U-87 MG glioma xenograft | 0.3 ± 0.07
